Measured values of several laboratories.
Values joined by “and” are separate records of one study, mostly repeats; a detail may differ. ± marks the error that the study gave.
MCOLN3: Mucolipin-3 (MCOLN3, Homo sapiens, UniProt Q8TDD5)
UniProt Q8TDD5, sequence (whole entry, looked up): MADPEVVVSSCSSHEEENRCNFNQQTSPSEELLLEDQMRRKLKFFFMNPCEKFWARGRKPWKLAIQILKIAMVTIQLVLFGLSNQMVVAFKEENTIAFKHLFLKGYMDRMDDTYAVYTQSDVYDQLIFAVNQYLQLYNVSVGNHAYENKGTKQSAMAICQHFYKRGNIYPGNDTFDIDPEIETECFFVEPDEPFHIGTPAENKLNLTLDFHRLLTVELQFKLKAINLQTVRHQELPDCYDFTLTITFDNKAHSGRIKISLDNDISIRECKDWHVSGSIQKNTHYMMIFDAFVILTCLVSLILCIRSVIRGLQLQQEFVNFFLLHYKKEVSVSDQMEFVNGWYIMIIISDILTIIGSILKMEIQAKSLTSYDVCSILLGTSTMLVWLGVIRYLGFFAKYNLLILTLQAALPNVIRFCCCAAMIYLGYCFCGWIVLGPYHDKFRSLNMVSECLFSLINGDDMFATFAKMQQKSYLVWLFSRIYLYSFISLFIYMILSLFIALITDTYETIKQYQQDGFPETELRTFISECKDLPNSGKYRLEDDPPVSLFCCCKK
TRPV1: Transient receptor potential cation channel subfamily V member 1 (TRPV1, Homo sapiens, UniProt Q8NER1)
UniProt Q8NER1, sequence (whole entry, looked up): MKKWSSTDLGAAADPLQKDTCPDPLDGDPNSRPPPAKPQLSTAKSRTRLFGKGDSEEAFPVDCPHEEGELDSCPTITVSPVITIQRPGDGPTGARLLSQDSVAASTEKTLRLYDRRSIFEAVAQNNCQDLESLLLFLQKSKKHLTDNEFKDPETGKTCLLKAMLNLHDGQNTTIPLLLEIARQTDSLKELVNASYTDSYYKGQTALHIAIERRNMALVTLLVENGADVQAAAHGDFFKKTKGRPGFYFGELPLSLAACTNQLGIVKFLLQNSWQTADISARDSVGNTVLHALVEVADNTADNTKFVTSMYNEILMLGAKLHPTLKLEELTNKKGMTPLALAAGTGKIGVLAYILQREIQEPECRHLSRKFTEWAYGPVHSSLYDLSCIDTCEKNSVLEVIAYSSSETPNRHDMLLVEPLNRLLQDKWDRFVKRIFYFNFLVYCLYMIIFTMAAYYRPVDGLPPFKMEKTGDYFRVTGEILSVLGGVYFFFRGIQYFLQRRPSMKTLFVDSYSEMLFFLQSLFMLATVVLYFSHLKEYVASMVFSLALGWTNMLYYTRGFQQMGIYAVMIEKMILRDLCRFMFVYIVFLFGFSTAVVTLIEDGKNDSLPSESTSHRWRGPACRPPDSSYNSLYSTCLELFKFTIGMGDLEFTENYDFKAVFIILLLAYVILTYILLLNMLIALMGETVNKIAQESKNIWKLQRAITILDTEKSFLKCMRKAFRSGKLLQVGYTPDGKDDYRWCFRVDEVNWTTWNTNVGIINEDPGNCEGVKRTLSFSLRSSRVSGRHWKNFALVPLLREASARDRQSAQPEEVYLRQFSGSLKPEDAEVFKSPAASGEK
Vcp: Transitional endoplasmic reticulum ATPase (Vcp, Mus musculus, UniProt Q01853)
UniProt Q5NUL3, sequence (whole entry, looked up): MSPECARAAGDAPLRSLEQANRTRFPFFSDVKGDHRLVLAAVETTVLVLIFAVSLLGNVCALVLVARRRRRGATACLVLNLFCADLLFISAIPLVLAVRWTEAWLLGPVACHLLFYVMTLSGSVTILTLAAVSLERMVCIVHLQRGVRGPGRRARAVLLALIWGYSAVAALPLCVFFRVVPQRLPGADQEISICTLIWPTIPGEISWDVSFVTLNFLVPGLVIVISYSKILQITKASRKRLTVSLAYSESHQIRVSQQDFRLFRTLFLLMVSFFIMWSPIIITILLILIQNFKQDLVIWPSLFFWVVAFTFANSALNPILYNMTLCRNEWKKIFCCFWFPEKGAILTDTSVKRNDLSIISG
UniProt Q01853, sequence (whole entry, looked up): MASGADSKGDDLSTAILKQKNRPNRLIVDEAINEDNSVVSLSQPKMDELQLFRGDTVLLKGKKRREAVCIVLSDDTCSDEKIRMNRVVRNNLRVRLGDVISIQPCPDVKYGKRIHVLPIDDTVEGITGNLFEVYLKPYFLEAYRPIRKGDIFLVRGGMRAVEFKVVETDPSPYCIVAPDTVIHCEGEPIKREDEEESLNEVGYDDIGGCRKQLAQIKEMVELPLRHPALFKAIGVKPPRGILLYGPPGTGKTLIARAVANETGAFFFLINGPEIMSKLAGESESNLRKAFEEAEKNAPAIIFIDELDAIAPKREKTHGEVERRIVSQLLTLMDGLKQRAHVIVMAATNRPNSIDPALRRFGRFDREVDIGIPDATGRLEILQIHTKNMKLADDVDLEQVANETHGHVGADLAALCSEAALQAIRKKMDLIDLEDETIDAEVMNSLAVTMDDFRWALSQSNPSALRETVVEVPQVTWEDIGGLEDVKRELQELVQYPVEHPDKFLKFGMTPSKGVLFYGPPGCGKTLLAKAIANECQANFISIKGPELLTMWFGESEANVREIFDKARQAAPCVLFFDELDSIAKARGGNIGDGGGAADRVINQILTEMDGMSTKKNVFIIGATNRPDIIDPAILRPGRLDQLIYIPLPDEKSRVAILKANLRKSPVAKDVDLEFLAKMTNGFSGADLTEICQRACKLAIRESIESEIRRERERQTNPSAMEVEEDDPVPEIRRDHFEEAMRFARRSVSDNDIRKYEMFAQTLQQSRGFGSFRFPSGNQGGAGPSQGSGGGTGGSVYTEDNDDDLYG
UniProt P43220, sequence (whole entry, looked up): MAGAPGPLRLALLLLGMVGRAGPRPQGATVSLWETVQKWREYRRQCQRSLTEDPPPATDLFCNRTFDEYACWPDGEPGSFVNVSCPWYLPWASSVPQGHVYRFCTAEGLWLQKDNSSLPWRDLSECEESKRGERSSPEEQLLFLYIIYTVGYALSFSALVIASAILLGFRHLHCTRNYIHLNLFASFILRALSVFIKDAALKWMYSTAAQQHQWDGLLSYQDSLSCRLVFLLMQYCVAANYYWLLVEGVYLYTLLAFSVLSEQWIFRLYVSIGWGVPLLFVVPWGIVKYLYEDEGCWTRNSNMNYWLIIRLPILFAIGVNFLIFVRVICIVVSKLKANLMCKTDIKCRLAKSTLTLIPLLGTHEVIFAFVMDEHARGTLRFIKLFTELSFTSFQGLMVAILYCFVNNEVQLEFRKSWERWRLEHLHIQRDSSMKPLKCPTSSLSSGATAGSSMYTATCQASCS
UniProt P33766, sequence (whole entry, looked up): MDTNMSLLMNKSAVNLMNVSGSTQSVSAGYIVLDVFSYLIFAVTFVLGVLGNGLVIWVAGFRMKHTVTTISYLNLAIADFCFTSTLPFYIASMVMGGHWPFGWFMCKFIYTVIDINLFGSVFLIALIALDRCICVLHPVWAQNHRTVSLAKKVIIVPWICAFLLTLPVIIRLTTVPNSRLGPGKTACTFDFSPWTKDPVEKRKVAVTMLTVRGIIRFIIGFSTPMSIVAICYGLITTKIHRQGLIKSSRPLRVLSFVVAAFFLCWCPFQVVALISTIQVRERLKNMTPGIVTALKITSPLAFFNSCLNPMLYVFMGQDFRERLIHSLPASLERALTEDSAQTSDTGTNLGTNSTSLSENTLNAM

Substance | target | assay | test system | setting | scale | EC50
Cc1ccc(C(C)C)cc1O | Transient receptor potential cation channel subfamily V member 3 (TRPV3, Homo sapiens, UniProt Q8NET8) | ion current, activator, whole-cell patch clamp | HEK293 transfected with TRPV3 | range over 0.01 to 3.0 mM |  | 215000 ± 47900 nM
CC[S+]([O-])c1nc(-c2cccc(OCc3ccccc3)c2)cc(C(F)(F)F)n1 (stereo not shown) | Glucagon-like peptide 1 receptor (GLP1R, Homo sapiens, UniProt P43220) | agonist | human cells |  |  | ~500 nM
O=S(=O)(Oc1cccc2ccccc12)C1CC2OC1C(c1ccc(O)cc1)=C2c1ccc(O)cc1 (stereo not shown) | Estrogen receptor (ESR1, Homo sapiens, UniProt P03372) | reporter gene, agonist, luciferase |  |  |  | 46 nM
CCCC(=O)OC[C@H](COP(=O)(O)O[C@@H]1[C@H](O)[C@H](O)[C@@H](OP(=O)(O)O)[C@H](OP(=O)(O)O)[C@H]1O)OC(=O)CCC | Arf-GAP with SH3 domain, ANK repeat and PH domain-containing protein 1, PH domain (Asap1, Mus musculus, UniProt Q9QWY8) | tryptophan fluorescence |  | pH 7.4 |  | 120000 nM
CCCC(=O)Oc1c(S(=O)(=O)c2ccc(C)cc2)c(C)nn1C(C)(C)C | MCOLN3 | calcium flux, agonist, Fluo-8 calcium | HEK293 expressing TRPML3 |  |  | 2520 ± 830 nM
CC(C)(C)c1ccc(-c2nc3n(c(=O)c2C#N)CCCS3)cn1 | Glutamate NMDA receptor; Grin1/Grin2b (Grin1/Grin2b, Rattus norvegicus, UniProt P35439+Q00960) | ion current, agonist, two-electrode voltage clamp |  | oocytes |  | 5000 nM
CC1CCN(c2nc(C(F)(F)F)ccc2CNC(=O)NC(C)c2ccc(NS(C)(=O)=O)c(F)c2)CC1 (stereo not shown) | TRPV1 | 45Ca2+ uptake, agonist | CHO expressing human TRPV1 |  | baseline: capsaicin 1 µM maximal response | > 3000 nM
O=C(/C=C/C=C/c1ccc2c(c1)OCO2)N1CCCCC1 | Nuclear receptor subfamily 1 group I member 2 (NR1I2, Homo sapiens, UniProt O75469) | CYP3A4 promoter reporter, agonist | LS174T transfected with CYP3A4-luc, no PXR | 24 h |  | 670 nM
Nc1nc2c(ncn2[C@@H]2O[C@@H]3COP(=O)(O)O[C@H]3[C@H]2O)c(=O)[nH]1 | Cyclic nucleotide-gated channel alpha-2 (Cnga2, Rattus norvegicus, UniProt Q00195, G204E) | channel current, agonist, inside-out patch clamp | Xenopus oocytes | holding +100 mV |  | 1800 nM
CCC[C@H](C(=O)Nc1ccc(Br)cc1)n1nc(C)cc(Cc2cccc(OC)c2)c1=O | fMet-Leu-Phe receptor (FPR1, Homo sapiens, UniProt P21462) | β-arrestin recruitment, agonist |  |  |  | 3800 nM
O=C(OCCN(C1=NS(=O)(=O)c2ccccc21)c1ccc(Cl)cc1)c1ccco1 | Vcp | ATPase activity, activator, Kinase-Glo |  | Vcp 50 nM, together with: ATP 62.5 µM |  | 9000 nM
NCCCNCCCCNCCCN | MCU/MICU1, with EMRE and MICU2 (Homo sapiens, UniProt Q8NE86+Q9BPX6) | mitochondrial calcium uptake, activator, Fluo-4 fluorescence | permeabilized HEK293 | pH 7.2, together with: 5 mM succinate |  | 201000 nM
O=S(=O)(NC1CCCCC1N1CCOCC1)c1ccc(Cl)cc1 (stereo not shown) | MCOLN3 | calcium flux, agonist, Fluo-8 calcium | HEK293 expressing TRPML3 |  |  | < 1000 nM
CC(C)C[C@H](NC(=O)[C@@H](O)[C@H](N)Cc1ccccc1)C(=O)N1CCC[C@H]1C(=O)N1CCC[C@H]1C(=O)NCCOCCOCC(=O)NC[C@H](NC(=O)CN(C)C)C(=O)N[C@@H](CS)C(N)=O | Aminopeptidase N (ANPEP, Homo sapiens, UniProt P15144) | enzyme activity, inhibitor | HT-1080 | 30 min, together with: Ala-pNA 2 mM |  | 23600 nM
CCOc1ccc(S(=O)(=O)N2CCCCCC2)c2ccccc12 | MCOLN3 | calcium flux, agonist, Fluo-8 calcium | HEK293 expressing TRPML3 |  |  | < 1000 nM and 990 nM
O=C(CSc1nc2ccccc2c(=O)n1NC(=O)c1ccccc1)c1ccc(Cl)cc1 | Vcp | ATPase activity, activator, Kinase-Glo |  | Vcp 50 nM, together with: ATP 62.5 µM |  | 1570 nM
CC1CC(C)(C)N(C(=O)CN2C(=O)c3ccccc3C2=O)c2ccccc21 (stereo not shown) | Mucolipin-1 (MCOLN1, Homo sapiens, UniProt Q9GZU1, L15A/L16A) | ion current, agonist, whole-cell patch clamp | HEK293 tetracycline-inducible | pH 4.6, raised competitor concentration |  | ~20000 nM
O=S(=O)(Nc1ccccc1N1CCCCC1)c1ccc(Cl)s1 | MCOLN3 | calcium flux, agonist, Fluo-8 calcium | HEK293 expressing TRPML3 |  |  | 660 nM and < 1000 nM
Cc1cc(OCCCS(C)(=O)=O)cc(C)c1-c1cccc(COc2ccc3c(c2)OC[C@H]3CC(=O)O)c1 | Free fatty acid receptor 4 (FFAR4, Homo sapiens, UniProt Q5NUL3) | agonist, dynamic mass redistribution | CHO cells expressing FFA4 | 5 min |  | > 20000 nM
CCCOc1cc(C)c(Cl)cc1S(=O)(=O)N(CC)CC | MCOLN3 | calcium flux, agonist, Fluo-8 calcium | HEK293 expressing TRPML3 |  |  | 4790 ± 1090 nM
CC1=NN(CC(=O)Nc2ccc(Br)cc2)C(=O)CC1c1ccccc1 (racemic) | fMet-Leu-Phe receptor (Mus musculus, UniProt P33766) | calcium signal, agonist |  |  |  | 2300 nM
CC1CCN(c2nc(C(F)(F)F)ccc2CNC(=O)[C@@H](C)c2ccc(NS(C)(=O)=O)c(F)c2)CC1 | TRPV1 | 45Ca2+ uptake, agonist | CHO expressing human TRPV1 |  | baseline: capsaicin 1 µM maximal response | > 3000 nM
CC1(C)C(/C=C/C=C2\N(CCCCCC(=O)NCCCC[C@H](NC(=O)N[C@H](CCC(=O)O)C(=O)O)C(=O)O)c3ccc(S(=O)(=O)O)cc3C2(C)C)=[N+](CCCCCC(=O)NCCCCn2cc(C[N+](C)(C)C[B-](F)(F)F)nn2)c2ccc(S(=O)(=O)O)cc21 | Glutamate carboxypeptidase 2 (FOLH1, Homo sapiens, UniProt Q04609) | binding, flow cytometry | PC3-PIP | 1 h, 37 °C |  | 6.74 ± 1.33 nM
CC1CCN(c2nc(C(F)(F)F)ccc2CNC(=O)Nc2ccc(CNS(C)(=O)=O)c(F)c2)CC1 | TRPV1 | 45Ca2+ uptake, agonist | CHO expressing human TRPV1 |  | baseline: capsaicin 1 µM maximal response | > 3000 nM
JAK inhibitor I | Serine/threonine-protein kinase/endoribonuclease IRE1 (Mus musculus, UniProt Q9EQY0, N772Y) | RNase activity, activator, gel-based RNA cleavage |  |  |  | 190 nM

Some of these lines once more:
Substance | target | assay | test system | setting | scale | EC50
O=S(=O)(NC1CCCCC1N1CCOCC1)c1ccc(Cl)cc1 (stereo not shown) | MCOLN3 | calcium flux, agonist, Fluo-8 calcium | HEK293 expressing TRPML3 |  |  | < 1000 nM
